Assay results from different studies.
Numbered parts are unrelated; each lists some results of a single study.

Set 1
Target: RNA binding protein fox-1 homolog 2, RRM domain, GST-SBP tag (RBFOX2, Homo sapiens, UniProt O43251-10, residues 100-194)
Method: RNA Bind-n-Seq
Form: RNA
Medium: in vitro
Concentration: 365 nM
Setting: natural RNA segment, single round, ends assumed
Baseline: no-protein control
Reading: higher = stronger binding
Shared flanks, not repeated: GGGAGUUCUACAGUCCGACGAUC … UGGAAUUCUCGGGUGCCAA
Target sequence (chain): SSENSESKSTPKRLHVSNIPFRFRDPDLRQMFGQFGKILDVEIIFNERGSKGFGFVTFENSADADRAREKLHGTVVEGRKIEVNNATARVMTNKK
| Oligonucleotide | RBNS enrichment (R) |
| --- | --- |
| UUUUCCCAUCCACUGAAACAGCCUGUUGUAGCAAGAGGCUUUCAAGAGUGCAGUGGAGUUGCGCUGGCCAUCAGUGUUUGGGGUCUGAGUUUGAUAGACUAGUGCAGCGA | 0.888 |
| CCUGGUGACCUCGCCGCUCUUCUUGAAUCAUGCUGGGCUGCCCCUGCUCAGCACCCCGCCUGGUGUGGGCCUGGUCUCAGCAGCGGCUGCGGCUGUGGCAGCCUCCAUCU | 0.209 |
| AAAGUAUUAUCAAGUGUCAAGAUCAGCAAGUGUCCUUAAGUCAAACAGGUUUUUUUUGUUGUUGUUUUUGCUUUGUUUCCUUUUUUAGAAAGUUCUAGAAAAUAGGAAAA | 1.07 |
| CCUCCCAGCACCCCAGCUUGCUGGCUGCCCUCUUUGCCUUCUGGCCUCCAGCUGGGUGUGGGGGGGCGGAGCAAGGCGGGGGACAGACGCAGCACCUUCUUAGCGAUCUA | 1.14 |
| CUUAUUAAAUAAAAAUAUAAAAAUAUGUACAUUACAUUUUGCUUAUUUUCAUAUAAAAGGUAAGAAAGAGUUUGCAAAGCAUUUGUGGCUUUUUGUAGUUUACUUAAGCC | 0.406 |
| UCUUUUGAUCAUAUCAAGCUAGGAUAGAAGGGGGGCUAUUUUAAAUGUCAAGGUCAGCAGUGUUACUUUGAAUGUAAACUGGUAUAAUAGGUAGUUUUCUAUAGUAACUU | 0.556 |
| CUCUUGCUCUGAGCUACAAUCAUGGCUUCUCAUGUUACUUACCAAGUGAGAGUUUUGGUUAGUAAUCACAGCUGUAAAAUUGAUUUACACUUGUUAAACAUAUUGCCCCU | 0.334 |
| CAGUUGAGAAACACUAAGGUUAUGGUGAAUAAAACCAUAGGGAGCUUCUUCCCCCCAACCCCUGGCUAUUUUAUAUUAAUGGGGAGAGGGGAUUUUUAAAUGUCAUAAAU | 0.371 |
| GGGCAGCAAAACAAGUGACAUGAAGGGAGGGUCCCUGUGUGUGUGUGUGCUGAUGUUUCCUGGGUGCCCUGGCUCCUUGCAGCAGGGCUGGGCCUGCGAGACCCAAGGCU | 0.68 |
| GACCUGAAGCAUCCUUGACCUUCAUUUUGCUCAGGACUAUUCACUGUUUCCCUUCCUUGAGGAAGCCAUUGGAGAGAGCCACAGAACAGCAGUAUAUUGUAUUAAAGUUU | 0.308 |
| UUAUCAAGUAUCCUGUAUGUGUUCCUUUGUAAACCGGUACUCAUGAAUGAGGGAAAGUCUGAUGCUAAGAUACUGCCUGCACUGGAAUGUCAAACACUAUAUAACAAGCU | 5.19 |
| UUAACAUAUAAUGUCAAAAUUUUCUAUUCUGGUGCCAAUAUAGAUGAAUUAAUUACGUUCCUGAUAGAUCACAGUCAAUCUUCUGAAGAUGAGUUAAAAAUGCCUUGUCU | 0.492 |

Set 2
Target: Histone acetyltransferase KAT6A, winged helix 2, GST fusion (KAT6A, Homo sapiens, UniProt Q92794, residues 85-181)
Method: protein binding microarray
Form: double-stranded DNA, one strand shown
Medium: in vitro
Concentration: not given
Setting: 8-mer, flanks averaged, mean of 2 arrays, mostly near background
Baseline: not given
Reading: higher = stronger binding
Residues (chain): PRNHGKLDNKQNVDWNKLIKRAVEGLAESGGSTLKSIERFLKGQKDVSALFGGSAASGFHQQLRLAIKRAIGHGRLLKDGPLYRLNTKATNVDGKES
| Oligonucleotide | E-score |
| --- | --- |
| AGTAGTCC | -0.0992 |
| GAGGCTCC | 0.0149 |
| GCAGTAGC | 0.0392 |
| AACGGGGT | -0.0862 |
| CGGATGCA | 0.0178 |
| ACGTTCAG | -0.137 |
| AATGATCC | -0.0688 |
| CGTGGCGA | 0.167 |
| AGTGCTGC | -0.0759 |
| CGTTTAAA | -0.0965 |
| CGGTTTAA | 0.0465 |
| AAGGGTTG | 0.0218 |
| CCGTCCGA | 0.0739 |
| ACGGCAAG | 0.0707 |
| CTGAGCCC | -0.0756 |
| CTTCGGCA | 0.0104 |
| ATTGCCGC | 0.107 |
| GATTTCGA | 0.0121 |
| ACGGGGTC | -0.0303 |
| GCGTGGTA | -0.049 |
| GCCGCATA | 0.213 |
| AAGTAGGG | -0.0434 |

Set 3
Target: Max-binding protein MNT, bHLH-zipper, MAX partner unstated (MNT, Homo sapiens, UniProt Q99583, residues 220-300)
Method: protein-binding microarray
Form: double-stranded DNA, one strand shown
Medium: in vitro
Concentration: not given
Setting: k-mer, scored over probes, only values ≥0.25
Reading: higher = stronger binding
Target sequence (chain): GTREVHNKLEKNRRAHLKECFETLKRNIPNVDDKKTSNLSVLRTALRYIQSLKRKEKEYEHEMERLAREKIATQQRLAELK
| Oligonucleotide | E-score |
| --- | --- |
| GGGCATGA | 0.263 |
| CTCGTGTA | 0.448 |
| ATGCAACG | 0.272 |
| ACGCTGAC | 0.288 |
| CGTGTGAC | 0.279 |
| ATGAGGTG | 0.254 |
| GCACGAGC | 0.32 |
| CCACACCC | 0.292 |
| CGTTACCA | 0.253 |
| ACCCACGT | 0.436 |
| ACCCCACG | 0.321 |
| CTGTCCCC | 0.298 |
| ACGTGCCA | 0.444 |
| CACCCGTG | 0.253 |
| CGGACACG | 0.317 |
| AGCATGCA | 0.389 |
| GTGCCCCA | 0.286 |
| CATGTTAC | 0.283 |
| CACGCTGA | 0.384 |

Set 4
Target: Ras GTPase-activating protein-binding protein 1, full length (G3BP1, Homo sapiens, UniProt Q13283)
Chain of UniProt Q13283 (whole entry, looked up): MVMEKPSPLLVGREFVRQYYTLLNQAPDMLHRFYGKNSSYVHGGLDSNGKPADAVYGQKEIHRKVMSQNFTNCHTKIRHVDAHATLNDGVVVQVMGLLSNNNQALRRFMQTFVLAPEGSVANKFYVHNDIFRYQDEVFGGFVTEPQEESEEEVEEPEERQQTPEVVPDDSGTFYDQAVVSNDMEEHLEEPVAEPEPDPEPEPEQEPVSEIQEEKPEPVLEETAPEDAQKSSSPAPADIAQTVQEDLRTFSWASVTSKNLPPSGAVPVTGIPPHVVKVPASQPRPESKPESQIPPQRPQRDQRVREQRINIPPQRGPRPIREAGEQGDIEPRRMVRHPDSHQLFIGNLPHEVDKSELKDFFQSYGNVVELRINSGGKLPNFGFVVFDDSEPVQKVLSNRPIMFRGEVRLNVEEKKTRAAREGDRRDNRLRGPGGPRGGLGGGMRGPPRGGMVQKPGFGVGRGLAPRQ
Method: RNA Bind-n-Seq
Form: RNA
Medium: in vitro
Concentration: 200 nM
Setting: whole 134-nt RNA, ends assumed
With: 150 mM KCl
Baseline: input library
Reading: higher = stronger binding
Shared flanks, not repeated: GGGAGUUCUACAGUCCGACGAUC … UGGAAUUCUCGGGUGUCAAGG
| Oligonucleotide | log2 enrichment |
| --- | --- |
| UGUGCUACACAUCGUAUGUACCGAAUCGGGGUUUUUUUGGGGAAAAAGGGGAAAAAAAGGGGAAAGUAUUAUGUUACGCCGUUCGGAUCU | -0.449 |
| GUCCUGUGCUACACAUCGUAUGUACCGAAUCGGGGAAAAAGGAAAAAGGGGAAAAAGGAAAGUAUUAUGUUACGCCGUUCGGAUCUGCAC | -0.387 |
| UGGGAGGUGGAUUUUGUUUAUUUUUUUAGCUCAUUUCCAGGGGUGGGGAUUUUUUUUUAAUAUGUGUCAUGAAUAAAGUUGUUUUUGAAA | 0.673 |
| UGGUCCUGGUGGCAUGCGGGGAGGAAGAGGUGGCCUCAUGGAUCGUGGUGGUCCCGGUGGAAUGUUCAGAGGUGGCCGUGGUGGAGACAG | 0.318 |
| UCCUCAAGUCCUGUGCUACACAUCGUAUGUACCGAAUCGGGCGGCGGCGGGAAAGUAUUAUGUUACGCCGUUCGGAUCUGCACUUCCAGC | -0.341 |
| CAAGUCCUGUGCUACACAUCGUAUGUACCGAAUCGGGAAAGGGGAAAGGGGAAAGGAAAGUAUUAUGUUACGCCGUUCGGAUCUGCACUU | -0.153 |
| UUUUCUGCAUGGACCGUGCCCUAGAAUUUGCCCCUGCCUGCCAUCGCUUCAAAAUCCUCAAGGCAGAAUGUUUAGCAAUGCUGGGUCGUU | -0.132 |
| CCUGUGCUACACAUCGUAUGUACCGAAUCGGGUUUUUUGGGGUUUUUUGGGUUUUUUGGGGAAAGUAUUAUGUUACGCCGUUCGGAUCUG | -0.574 |
| CAAGUCCUGUGCUACACAUCGUAUGUACCGAAUCGGAAAAAGGAAAAAAAGGAGGAAAGUAUUAUGUUACGCCGUUCGGAUCUGCACUUC | -0.918 |
| ACCAUGCAGGUGGGCAUCUUUGGGAAGUGGGGCAAGGAGGGGAUAGGGAGGGGGGUAACACUUUGGGAACAGGUGGUCCCAGGUCGUUUC | 1 |

Set 5
Target: Sal-like protein 4, full length isoform A (SALL4, Homo sapiens, UniProt Q9UJQ4, residues 1-1053)
Chain of UniProt Q9UJQ4 (whole entry, looked up): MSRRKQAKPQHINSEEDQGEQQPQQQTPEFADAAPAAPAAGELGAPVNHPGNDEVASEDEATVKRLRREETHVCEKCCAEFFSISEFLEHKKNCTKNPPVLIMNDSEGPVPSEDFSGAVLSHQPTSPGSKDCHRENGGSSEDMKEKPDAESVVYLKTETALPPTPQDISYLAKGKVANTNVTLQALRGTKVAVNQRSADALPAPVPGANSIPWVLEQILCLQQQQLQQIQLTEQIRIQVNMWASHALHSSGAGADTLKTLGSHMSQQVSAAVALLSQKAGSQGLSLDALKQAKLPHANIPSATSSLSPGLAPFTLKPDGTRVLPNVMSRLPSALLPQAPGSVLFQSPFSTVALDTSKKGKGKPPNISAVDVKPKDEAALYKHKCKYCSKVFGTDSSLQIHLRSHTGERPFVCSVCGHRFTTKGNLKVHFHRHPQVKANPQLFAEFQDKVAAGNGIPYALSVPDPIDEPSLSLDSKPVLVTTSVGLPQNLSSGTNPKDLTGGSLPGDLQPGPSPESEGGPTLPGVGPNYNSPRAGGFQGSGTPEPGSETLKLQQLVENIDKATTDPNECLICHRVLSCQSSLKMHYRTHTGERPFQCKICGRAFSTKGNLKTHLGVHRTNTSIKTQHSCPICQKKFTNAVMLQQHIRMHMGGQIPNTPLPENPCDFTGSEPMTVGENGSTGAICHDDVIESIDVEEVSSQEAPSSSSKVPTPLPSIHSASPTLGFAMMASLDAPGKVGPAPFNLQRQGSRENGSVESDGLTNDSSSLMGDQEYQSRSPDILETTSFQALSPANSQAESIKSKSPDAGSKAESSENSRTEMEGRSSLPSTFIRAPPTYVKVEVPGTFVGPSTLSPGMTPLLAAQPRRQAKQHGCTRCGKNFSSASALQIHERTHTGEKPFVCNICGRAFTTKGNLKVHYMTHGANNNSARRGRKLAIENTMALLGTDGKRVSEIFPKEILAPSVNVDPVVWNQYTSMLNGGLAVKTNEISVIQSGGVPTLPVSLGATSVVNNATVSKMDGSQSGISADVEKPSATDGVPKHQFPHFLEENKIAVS
Method: universal PBM
Form: double-stranded DNA, one strand shown
Medium: in vitro
Concentration: 600 nM
Setting: 8-mer, flanks averaged, mean of replicates
Reading: higher = stronger binding
| Oligonucleotide | E-score |
| --- | --- |
| GTGATGCA | 0.12 |
| CGTGCGTA | -0.11 |
| GATCATCC | -0.156 |
| CGAACGGC | -0.206 |
| GGATGACC | -0.259 |
| CTCGCGTA | -0.103 |
| GTCATTCA | 0.0992 |
| ATAGAAAA | 0.203 |
| ACGTCTGG | -0.0402 |
| ATCACTAC | 0.0827 |
| GTCTTCAA | 0.208 |
| AATTGCAG | 0.15 |
| GTAATTAA | 0.316 |
| AATTTTAC | 0.287 |
| GTGGAAGA | 0.0255 |
| CTCTGGTA | 0.101 |
| CTGATTCA | 0.0604 |
| GATCGTTA | 0.0235 |
| GAAAGAGC | -0.0793 |
| AATTGCAT | 0.279 |
| CATTCCGG | -0.243 |
| CGGAATCC | -0.169 |
| TCTGATCA | -0.00402 |
| ACCCCTGA | -0.0566 |
| AACTCTCC | -0.0435 |
